Published values from different studies.
Every numbered part comes from another study and shows a few of its results, in no order. Values joined by “and” are separate records of one study, mostly repeats; a detail may differ.

Study 1
SMILES: CC(C)=CCN1C(=O)C(O)(C(=O)O)Oc2cc(F)ccc21 (stereo not shown)
Arabidopsis thaliana; hypocotyl length; Col-0; 3.125 µg/mL, 7 days, seed germination, dark — inhibition: 1.4%.
The inhibition was 11.9% (Arabidopsis thaliana; root length; Col-0, seedlings; 6.25 µg/mL).
It gave 12.6% for inhibition (Arabidopsis thaliana; root length; Col-0, seedlings; 12.5 µg/mL).
For Alopecurus aequalis; fresh weight; 150 g ai/ha, pre-emergence treatment: inhibition read 74.5% and 79.1% and 81.3%.
It gave 7.2% and 6.1% and 6.5% for inhibition (Zea mays; fresh weight; soil surface spray, 150 g ai/ha, 21 days, pre-emergence crop safety).
For Oryza sativa; fresh weight; soil surface spray, 150 g ai/ha, 21 days, pre-emergence crop safety: inhibition read 8% and 7% and 9.3%.
For Arabidopsis thaliana; root length; Col-0; 6.25 µg/mL, 7 days, seed germination, dark: inhibition read 11.9%.
The inhibition was 3.9% (Arabidopsis thaliana; hypocotyl length; Col-0; 6.25 µg/mL, 7 days, seed germination, dark).
For Arabidopsis thaliana; hypocotyl length; Col-0, seedlings; 25 µg/mL: inhibition read 11.8%.
The inhibition was 79.2% and 77.4% (Abutilon theophrasti; fresh weight; 150 g ai/ha, pre-emergence treatment).
The inhibition was 40.5% and 42.9% and 41.6% (Echinochloa crus-galli; fresh weight; 150 g ai/ha, post-emergence treatment).
For Arabidopsis thaliana; root length; Col-0; 100 µg/mL, 7 days, seed germination, dark: inhibition read 41%.
The inhibition was 41% (Arabidopsis thaliana; root length; Col-0, seedlings; 100 µg/mL; relative to: water control).
Arabidopsis thaliana; hypocotyl length; Col-0, seedlings; 3.125 µg/mL — inhibition: -1.39%.

Study 2 — cell line: U-87 MG; tested at: concentration not given; relative to: DMSO
SMILES: CCN1/C(=C/C=C2\CCCC(/C=C/C3=[N+](CC)c4ccccc4C3(C)C)=C2NCCCCCCCCN2CCC(Nc3nc4ccccc4n3Cc3ccc(F)cc3)CC2)C(C)(C)c2ccccc21
For measured: TEDC1 mRNA: “log2 fold change” read -0.97.
It gave 0.816 for “log2 fold change” (measured: TRIM25 mRNA).
The “log2 fold change” was 0.81 (measured: MEX3C mRNA).
For measured: PRKAB1 mRNA: “log2 fold change” read 1.13.
measured: HROB mRNA — “log2 fold change”: -1.11.
For measured: MYL9 mRNA: “log2 fold change” read -1.13.
It gave 1.47 for “log2 fold change” (measured: TULP3 mRNA).
It gave 1.11 for “log2 fold change” (measured: KLHL28 mRNA).
measured: CDC25C mRNA — “log2 fold change”: -1.98.
For measured: TRERF1 mRNA: “log2 fold change” read -2.45.
It gave -1.94 for “log2 fold change” (measured: CDC7 mRNA).
measured: ZNF503 mRNA — “log2 fold change”: -1.11.
For measured: GRB10 mRNA: “log2 fold change” read 1.11.
measured: CEBPB mRNA — “log2 fold change”: 0.805.
For measured: SNTB2 mRNA: “log2 fold change” read -0.918.
For measured: LFNG mRNA: “log2 fold change” read -2.76.

Study 3 — cell line: Gaucher fibroblasts L444P/L444P; technique: 4-MUG hydrolysis, cell lysate; tested at: 10 µM; relative to: DMSO
For COc1ccc(Nc2nc(NCCN3CCOCC3)nc(N3CCOCC3)n2)cc1, the GCase activity was 111% and 102% and 104% and 108% and 106% and 107%.
c1ccc(Nc2nc(NCCN3CCOCC3)nc(N3CCOCC3)n2)cc1 gave a GCase activity of 119% and 125% and 112% and 107% and 105%.
CCN(CC)c1nc(NCCN2CCOCC2)nc(Nc2ccc(I)cc2)n1 has a GCase activity of 68.7% and 62.9% and 63.5% and 75.1%.
The GCase activity of Ic1ccc(Nc2nc(NCCN3CCOCC3)nc(N3CCNCC3)n2)cc1 is reported as 1.72% and 8.36% and 2.04% and 6.69% and 7.49% and 6.64%.
The GCase activity of Ic1ccc(Nc2nc(NCCN3CCOCC3)nc(N3CC4CCC(C3)O4)n2)cc1 is reported as 119% and 118% and 129% and 108% and 124%.
Ic1ccc(Nc2nc(NCCN3CCOCC3)nc(N3CCCCC3)n2)cc1 gave a GCase activity of 91.6% and 88% and 87.6% and 89% and 90.7%.
Cc1ccc(Nc2nc(NCCN3CCOCC3)nc(N3CCOCC3)n2)cc1 gave a GCase activity of 167% and 150% and 141% and 170% and 165%.
CCOc1ccc2nc(Sc3nc(NCCN4CCOCC4)nc(Nc4ccc(I)cc4)n3)sc2c1 gave a GCase activity of 112% and 119% and 131% and 108%.

Study 4 — cell line: AsPC-1; technique: in-cell ELISA
Compound: Cc1ncsc1-c1ccc(C2(NC(=O)C3CC(O)CN3C(=O)C(NC(=O)c3ccc(COc4c(-c5c(C)c(F)cc6[nH]ncc56)c(C5CC5)cc5c(N6CC7CC6CN7)nc(OC6CCOCC6)nc45)cc3)C(C)C)CC2)cc1 (stereo not shown)
The phospho-ERK1/2 level was 88.6% and 97.7% and 87% (30 nM, per-experiment values).
The phospho-ERK1/2 level was 92.5% and 99.4% and 105% (300 pM, per-experiment values).
The phospho-ERK1/2 level was 85.7% and 102% and 97.3% and 99.4% and 105% and 91% (1 nM, individual replicates).
For 300 nM, individual replicates: phospho-ERK1/2 level read 31.7% and 22% and 58.7% and 30.8% and 53.2% and 28.6%.
It gave 10.2% and 11.6% and 7.41% for phospho-ERK1/2 level (10 µM, per-experiment values).
The phospho-ERK1/2 level was 74% and 58% and 69.8% (100 nM, per-experiment values).
It gave 88.7% and 99.5% and 97.3% for phospho-ERK1/2 level (3 nM, per-experiment values).
For 10 nM, individual replicates: phospho-ERK1/2 level read 107% and 99.2% and 101% and 102% and 85.7%.

Excerpt of the above (study 4):
The phospho-ERK1/2 level was 88.6% and 97.7% and 87% (30 nM, per-experiment values).
For 300 nM, individual replicates: phospho-ERK1/2 level read 31.7% and 22% and 58.7% and 30.8% and 53.2% and 28.6%.
The phospho-ERK1/2 level was 85.7% and 102% and 97.3% and 99.4% and 105% and 91% (1 nM, individual replicates).
The phospho-ERK1/2 level was 74% and 58% and 69.8% (100 nM, per-experiment values).
It gave 88.7% and 99.5% and 97.3% for phospho-ERK1/2 level (3 nM, per-experiment values).
For 10 nM, individual replicates: phospho-ERK1/2 level read 107% and 99.2% and 101% and 102% and 85.7%.
It gave 10.2% and 11.6% and 7.41% for phospho-ERK1/2 level (10 µM, per-experiment values).
